{"data": "Assay results gathered from unrelated publications", "note": "Protocols differ between the studies behind these lines. ± gives the spread as reported.", "sequence of UniProt O88693 (whole entry, looked up)": "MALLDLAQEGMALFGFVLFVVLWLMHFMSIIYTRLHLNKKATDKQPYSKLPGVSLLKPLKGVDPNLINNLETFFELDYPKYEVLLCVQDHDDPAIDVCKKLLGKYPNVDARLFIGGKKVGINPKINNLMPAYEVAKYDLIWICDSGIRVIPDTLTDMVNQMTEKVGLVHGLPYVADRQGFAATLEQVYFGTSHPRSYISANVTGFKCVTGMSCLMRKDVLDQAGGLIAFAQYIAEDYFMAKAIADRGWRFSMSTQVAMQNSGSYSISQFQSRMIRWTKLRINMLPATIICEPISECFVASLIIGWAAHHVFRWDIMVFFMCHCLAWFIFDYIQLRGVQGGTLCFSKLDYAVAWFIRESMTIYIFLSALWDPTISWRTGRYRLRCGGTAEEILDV"}
{"Structure (SMILES)": "Cc1noc(C)c1Cn1cc(N2C(=O)CN(Cc3cccc(OS(=O)(=O)O)c3)C2=O)cn1", "test system": "Sprague-Dawley rat, male", "setting": "oral, 100 mg/kg of parent drug, 4 h", "quantity": "plasma concentration", "result": "6110 ng/mL"}
{"Structure (SMILES)": "C=CC(=O)N1CCCC(n2c(=O)c3ncccc3n(Cc3ccc(Oc4ccccc4)cc3)c2=O)C1 (stereo not drawn)", "test": "metabolic stability", "test system": "human, hepatocytes", "setting": "1 µM, 2 h", "quantity": "compound remaining", "result": "37.8%"}
{"Structure (SMILES)": "CN(C)c1cccc(-c2ccc([C@H]3[C@@H](F)[C@@H](F)C[C@@H](F)[C@H]3F)cc2)c1", "test": "liver microsome stability", "test system": "cynomolgus liver microsomes", "setting": "1 µM", "quantity": "hepatic clearance", "result": "37 mL/min/kg"}
{"Structure (SMILES)": "CC(C)C[C@H](NC(=O)[C@H](CCCN)NC(=O)CNC(=O)[C@@H](NC(=O)[C@H](C)NC(=O)[C@@H]1CSCSC[C@H](NC(=O)CC[C@H](N)C(=O)O)C(=O)N[C@@H](CC(N)=O)C(=O)N[C@@H]([C@@H](C)O)C(=O)N[C@@H](C)C(=O)N[C@@H]([C@@H](C)O)C(=O)N1)[C@@H](C)O)C(=O)N[C@@H](C)C(=O)N[C@@H](CCC(=O)O)C(=O)N[C@@](C)(Cc1ccccc1)C(=O)N[C@@H](CC(C)C)C(=O)N[C@H](C(=O)N[C@@H](CCCNC(=N)N)C(=O)N[C@@H](CO)C(=O)N[C@@H](CO)C(=O)N[C@@H](CC(N)=O)C(=O)N(C)[C@@H](CC(N)=O)C(=O)N[C@@H](Cc1ccccc1)C(=O)NCC(=O)N1CCC[C@H]1C(=O)N[C@@H](CCCCNC(=O)CC[C@H](NC(=O)CC[C@H](NC(=O)CCCCCCCCCCCCCCCCCCC(=O)O)C(=O)O)C(=O)O)C(=O)N[C@@H](CC(C)C)C(=O)N1CCC[C@H]1C(=O)N1CCC[C@H]1C(=O)N[C@H](C(=O)N[C@@H](CCC(=O)O)C(=O)N[C@H](C(=O)NCC(=O)N[C@@H](CO)C(=O)N[C@@H](CC(N)=O)C(=O)N[C@H](C(=O)N[C@@H](Cc1ccc(O)cc1)C(N)=O)[C@@H](C)O)C(C)C)[C@@H](C)O)C(C)C", "test system": "human, plasma", "setting": "subcutaneous, 12 mg, single dose, healthy volunteers", "quantity": "half-life", "result": "14.5 days"}
{"Structure (SMILES)": "O=C(O)CCCOc1ccc([18F])cc1-c1cc(-c2ccccc2C(F)(F)F)n(-c2ccccc2)n1", "test": "OLINDA/EXM from mouse data", "test system": "human adults, small intestine", "quantity": "absorbed dose", "result": "16.5 µGy/MBq"}
{"Structure (SMILES)": "C[C@@H](O)[C@@H]1NC(=O)[C@H](CCCCN)NC(=O)[C@@H](Cc2c[nH]c3ccccc23)NC(=O)[C@H](Cc2ccc(O)cc2)NC(=O)[C@@H](NC(=O)[C@@H](Cc2ccccc2)NC(=O)CN2CCN(CC(=O)O)CCN(CC(=O)O)CCN(CC(=O)O)CC2)CSSC[C@@H](C(=O)N[C@H](CO)[C@@H](C)O)NC1=O [gallium-67 labelled]", "test": "gamma counting", "test system": "ICR mice, male, blood", "setting": "iv, 11 kBq/mouse, 1 h", "quantity": "tissue uptake", "result": "0.32 ± 0.06 %ID/g"}
{"Structure (SMILES)": "C[n+]1cccc2cc(/C=N/NC(=O)N/N=C/c3ccc4c(ccc[n+]4C)c3)ccc21", "target or system": "22CTA telomeric G4-DNA antiparallel", "test": "FRET melting", "setting": "1 µM, K10 buffer, DNA 0.2 µM, with: ds26 10 µM", "quantity": "ΔTm", "result": "2 ± 0.9 °C"}
{"Structure (SMILES)": "Nc1ncc(-c2cc(-c3cnn(CC(F)(F)F)c3)ncc2F)nc1C(=O)NC1CNCC(F)C1 (stereo not drawn)", "target or system": "LATS1", "test": "KINOMEscan", "setting": "1 µM", "how to read": "baseline: DMSO control", "quantity": "remaining binding", "result": "100%"}
{"Structure (SMILES)": "CCC1(CC)CC(=O)N(C2CCOc3ccc(C(=O)NC4CC(C)(C)Oc5ccccc54)cc32)C(=N)N1 (stereo not drawn)", "test system": "human plasma", "quantity": "unbound fraction", "result": 0.035}
{"Structure (SMILES)": "O=C(c1ccc(C2CCCCC2)cc1)N1CCCC1", "test": "liver microsome stability", "test system": "mouse liver microsomes", "setting": "1 µM", "quantity": "hepatic clearance", "result": "86 mL/min/kg"}
{"Structure (SMILES)": "CC[n+]1cccc2cc(/C=N/NC(=O)c3ccc4ccc5ccc(C(=O)N/N=C/c6ccc7c(ccc[n+]7CC)c6)nc5c4n3)ccc21", "target or system": "22CTA telomeric G4-DNA antiparallel", "test": "FRET melting", "setting": "1 µM, K10 buffer, DNA 0.2 µM", "quantity": "ΔTm", "result": "26.9 ± 1 °C"}
{"Structure (SMILES)": "COc1cccc(C2CC(c3ccccc3Cl)Nc3nc(N)nn32)c1 (stereo not drawn)", "test": "PAMPA", "test system": "brain lipid membrane", "setting": "10 µM, 4 h", "quantity": "permeability coefficient", "result": "9.16 ×10⁻⁶ cm/s"}
{"Structure (SMILES)": "O=C(Nc1cccc(C(=O)N2CCC(c3nc(-c4ccccc4)n[nH]3)CC2)c1)c1ccccc1", "test": "PAMPA", "test system": "artificial lipid membrane", "setting": "30 min", "quantity": "permeability", "result": "197 ± 81.6 ×10⁻⁶ cm/s"}
{"Structure (SMILES)": "CNC(=O)c1ccc(C2CCCCC2)cc1", "test": "liver microsome stability", "test system": "human liver microsomes", "setting": "1 µM, without NADPH", "quantity": "hepatic clearance", "result": "5.2 mL/min/kg"}
{"Structure (SMILES)": "O=C([O-])CN1CCN(CC(=O)[O-])CCN(CC(CCCc2ccccc2[N+](=O)[O-])N(CC(=O)[O-])CC(=O)[O-])CC1.[177Lu+3] (stereo not drawn)", "test": "TLC", "test system": "human serum", "setting": "62 h, pH 7, 37 °C", "quantity": "intact radiolabelled complex", "result": "99.9%"}
{"Structure (SMILES)": "CC(=O)N([O-])CCCCCNC(=O)CCC(=O)N([O-])CCCCCNC(=O)CCC(=O)N([O-])CCCCCN.[89Zr+4]", "test system": "mouse, blood", "setting": "4 h", "quantity": "tracer uptake", "result": "0.07 %ID/g"}
{"Structure (SMILES)": "CCn1nc(Cl)c2c1-c1cnc(N)c(c1)O[C@H](C)c1cc(F)ccc1-c1nn(C)cc1C2", "test system": "Balb/c nude mouse female, plasma", "setting": "0.06 mg/kg twice daily for 5 days, 1 h", "quantity": "free plasma concentration", "result": "0.43 nM"}
{"Structure (SMILES)": "CS(=O)(=O)c1ccc(-c2ccc([C@H]3[C@@H](F)[C@@H](F)C[C@@H](F)[C@H]3F)cc2)cn1", "test": "hepatocyte stability", "test system": "cryopreserved human hepatocytes", "setting": "1 µM", "quantity": "hepatic clearance", "result": "6.2 mL/min/kg"}
{"Structure (SMILES)": "COC1CN([C@H]2CC[C@H]([C@@]3(C)Oc4c(Cl)cc(C(=O)NCc5c(SC)cc(C)[nH]c5=O)c(C)c4O3)CC2)C1", "test": "RNA-seq, measured: PKIB", "test system": "human, whole blood", "setting": "dose not given, 24 h", "how to read": "baseline: pretreatment baseline", "quantity": "log2 fold change", "result": 2.6}
{"Structure (SMILES)": "COc1cccc(OC)c1-c1cc(C(=O)NC2(C(=O)O)C3CC4CC(C3)CC2C4)nn1-c1ccc(C(=O)N(C)CCCN(C)CCCN(C)C(=O)[C@H](CCCCNC(=O)[C@H](CC(C)C)NC(=O)C2OC2C(=O)O)NC(=O)CN2CCN(CC(=O)[O-])CCN(CC(=O)[O-])CCN(CC(=O)[O-])CC2)cc1C(C)C.[177Lu+3] (mixture of isomers)", "test system": "mouse, HT-29 xenograft", "setting": "4 h post injection, biodistribution", "how to read": "baseline: tumour over kidney uptake", "quantity": "tumour-to-kidney ratio", "result": 1.6}
{"Structure (SMILES)": "Cc1nn(-c2cccc(N)c2)c(=O)c2cnc(Nc3ccc(N4CCNCC4)cc3)nc12", "target or system": "ABL1 (Homo sapiens, UniProt P00519, Y253F)", "test": "enzyme activity, inhibitor", "quantity": "IC50", "result": "561 nM"}
{"Structure (SMILES)": "OC[C@@H]1[C@@H](O)[C@H](O)[C@@H](O)CN1CCCCCOCc1ccc(-c2ccc(Cl)cc2)cc1", "target or system": "Ugcg (Mus musculus, UniProt O88693)", "test": "enzyme activity, inhibitor, fluorescence", "quantity": "IC50", "result": "25 nM"}
{"Structure (SMILES)": "O=C(NCCOc1ccc(F)cc1)c1ccc(C2CCCCC2)cc1", "test": "liver microsome stability", "test system": "mouse liver microsomes", "setting": "1 µM", "quantity": "hepatic clearance", "result": "87 mL/min/kg"}
{"Structure (SMILES)": "O=C([O-])CN1CCN(CC(=O)[O-])CCN(C(CO)C(O)CO)CCN(CC(=O)[O-])CC1.[Dy+3] (stereo not drawn)", "test": "ICP-MS", "test system": "cynomolgus monkey", "setting": "dose not given, 3 d, mass balance group", "how to read": "baseline: dose", "quantity": "cumulative urinary excretion", "result": "98.5%"}
